Experimental data collected from several papers.
Each line is one published result; not all experiments were run side by side. Values joined by “and” are separate records of one study, mostly repeats; a detail may differ. ± gives the spread as reported. Converted amounts (≈) assume the structure as drawn.

Nc1nc(-c2ccccc2)nc2[nH]nc(Nc3ccc(OC(F)(F)F)cc3)c12
IC50 (rhinovirus B42; viral cytopathic effect; HeLa): 50 nM

Cc1ncsc1-c1ccc(CNC(=O)[C@@H]2C[C@@H](O)CN2C(=O)[C@@H](NC(=O)CN2CCN(C3CN(CCNC(=O)C[C@@H]4N=C(c5ccc(Cl)cc5)c5c(sc(C)c5C)-n5c(C)nnc54)C3)CC2)C(C)(C)C)cc1
protein level (Spodoptera frugiperda; degrader, targeted LC-MS, item: BRD3; Sf9; 1 µM): 10.8% and 12.4% and 11.3%

Nc1nc(-c2ccccc2)nc2[nH]nc(Nc3ccccc3F)c12
IC50 (coxsackievirus B3; viral cytopathic effect; HeLa): 120 nM

Cc1ccccc1C(c1c[nH]c(=O)[nH]c1=O)c1c[nH]c(=O)[nH]c1=O
inhibition (Human immunodeficiency virus 1; viral replication, inhibitor, ELISA; 1 µg/mL): 64%

COc1cc(O)c(-c2cc(-c3cc(-c4c(O)cc(OC)c5c4C[C@@H](C)N[C@@H]5C)c4cc(C)cc(OC)c4c3O)c(O)c3c(OC)cc(C)cc23)c2c1[C@@H](C)N[C@H](C)C2
IC50 (Plasmodium falciparum; asexual parasite proliferation, SYBR Green I fluorescence; HB3): 181 ± 7.6 nM

CC[C@H](C)[C@H](NC(=O)[C@H](Cc1ccc(O)cc1)NC(=O)[C@H](CCC(=O)O)NC(=O)CNC(=O)[C@H](CCC(=O)O)NC(=O)[C@H](CCCCN)NC(=O)[C@H](CCCCN)NC(=O)[C@H](CC(=O)O)NC(=O)[C@H](Cc1c[nH]cn1)NC(=O)[C@H](Cc1c[nH]cn1)NC(=O)[C@H](Cc1c[nH]cn1)NC(=O)[C@H](Cc1c[nH]cn1)NC(=O)[C@H](Cc1c[nH]cn1)NC(=O)[C@H](Cc1c[nH]cn1)NC(=O)[C@H](Cc1c[nH]cn1)NC(=O)[C@H](Cc1c[nH]cn1)NC(=O)[C@H](Cc1c[nH]cn1)NC(=O)[C@@H](N)Cc1c[nH]cn1)C(=O)N[C@@H](CCCCN)C(=O)N[C@@H](CC(C)C)C(=O)N[C@@H](CCCCN)C(=O)N[C@H](C(=O)N[C@H](C(=O)NCC(=O)N[C@@H](CCC(N)=O)C(=O)N[C@@H](CC(=O)O)C(=O)N[C@@H](CO)C(=O)N[C@@H](CO)C(=O)N[C@@H](CCC(=O)O)C(=O)N[C@H](C(=O)N[C@@H](Cc1c[nH]cn1)C(=O)N[C@@H](Cc1ccccc1)C(=O)N[C@@H](CCCCN)C(=O)N[C@H](C(=O)N[C@@H](CCCCN)C(=O)N[C@@H](CCSC)C(=O)N[C@H](C(=O)N[C@H](C(=O)N[C@@H](Cc1c[nH]cn1)C(=O)N[C@@H](CC(C)C)C(=O)N[C@@H](CCCCN)C(=O)N[C@@H](CCCCN)C(=O)N[C@@H](CC(C)C)C(=O)N[C@@H](CCCCN)C(=O)N[C@@H](CCC(=O)O)C(=O)N[C@@H](CO)C(=O)N[C@@H](Cc1ccc(O)cc1)C(=O)N[C@@H](CS)C(=O)N[C@@H](CCC(N)=O)C(=O)N[C@@H](CCCNC(=N)N)C(=O)N[C@@H](CCC(N)=O)C(=O)O)[C@@H](C)O)[C@@H](C)O)C(C)C)[C@@H](C)CC)[C@@H](C)CC)C(C)C
TH level mean difference (Drosophila melanogaster; immunoblot; head; 240 µM, normalised to β-actin, unit not given; reference: untreated): -0.327

CC1=N[C@H](C)Cc2c(-c3ccc4ccccc4c3)ccc(O)c21
IC50 (Plasmodium falciparum; asexual parasite proliferation, SYBR Green I fluorescence; Dd2): 600 ± 120 nM

CCc1ccc(-c2nc(N)c3c(Nc4ccc(F)cc4)n[nH]c3n2)cc1
IC50 (rhinovirus B42; viral cytopathic effect; HeLa): 500 nM

OC[C@H]1O[C@@H](OCCc2ccccc2)[C@H](O)[C@@H](O)[C@@H]1O
inhibition (Zika virus; viral replication, CCK-8; Vero C1008; 10 µM, 96 h): 17.1 ± 3.88%

COC1C=COC2(C)Oc3c(C)c(O)c4c(c3C2=O)C2=NC3(CCN(CC(C)C)CC3)NC2=C(NC(=O)C(C)=CC=CC(C)C(O)C(C)C(O)C(C)C(OC(=O)Nc2cnccn2)C1C)C4=O (stereo not drawn)
IC50 (Mycobacteroides abscessus; bacterial growth; subsp. massiliense 097 clinical isolate; rough, slow grower): 27 nM

COc1cccc2c(-c3ccc(O)c4c3CCN=C4)ccc(OC(C)C)c12
IC50 (Plasmodium falciparum; asexual parasite proliferation, SYBR Green I fluorescence; clinical isolate SB_05, Mozambique): 356 ± 21 nM

c1ccc(CN2CCOCCOCCN(CCCCCCCCCCCCN3CCOCCOCCN(CCCCCCCCCCCCN4CCOCCOCCN(Cc5ccccc5)CCOCCOCC4)CCOCCOCC3)CCOCCOCC2)cc1
tetracycline MIC (Klebsiella pneumoniae; ATCC BAA-2146; quarter MIC, together with: tetracycline): 300 ± 25 µM

Nc1nc(-c2ccccc2)nc2[nH]nc(Nc3ccc(Cl)cc3)c12
IC50 (coxsackievirus B3; viral cytopathic effect; HeLa): 120 nM

C=C(NC(=O)c1csc(-c2nc3c(cc2O)-c2nc(cs2)C(=O)NC(C(C)O)C(=O)NC(=C(C)OC)c2nc(cs2)C(=O)NC2c4nc(cs4)C(=O)NC(COC(=O)c4c5c6c(cccc6n4O)COC(=O)C(OC4CC(C)(O)C(N(C)C)C(C)O4)C2OC5)c2nc-3cs2)n1)C(N)=O (stereo not drawn)
MIC50 (Streptococcus pneumoniae; penicillin-resistant, 10 isolates; serum 0%): 7.8 ng/mL (≈ 5.43 nM)

COCCN(C)CC(=O)NC(Cc1ccc(-c2ccccc2)cc1)B(O)O (stereo not drawn)
reduction of liver-stage parasite biomass (Plasmodium berghei; HepG2; concentration not given): 98%

Nc1nc(-c2ccccc2)nc2[nH]nc(Nc3ccccc3)c12
IC50 (coxsackievirus B3; viral cytopathic effect; HeLa): 20 nM

O=c1[nH]cc(C(c2cccc(F)c2)c2c[nH]c(=O)[nH]c2=O)c(=O)[nH]1
inhibition (Human immunodeficiency virus 1; viral replication, inhibitor, ELISA; 1 µg/mL): 23%

CCCOC(=O)N1c2cc(CNC)ccc2[C@H](NC(=O)C(=O)Nc2ccc(Cl)c(F)c2)[C@H]1CNC(=N)N
IC80 (HIV-1; viral infection, Env pseudovirus neutralization; TZM-bl, CRF01_AE): > 100000 nM

O=C(O)c1ccc(O)cc1
pcaH mRNA level (Streptomyces coelicolor; RT-PCR; 2 mM, 1 h): increased

C=C[C@]1(C)C[C@@H](OC(=O)CSc2ccc(NC(=O)c3ccco3)cc2)[C@]2(C)[C@H](C)CC[C@]3(CCC(=O)[C@H]32)[C@@H](C)[C@@H]1O
air sac lesion score (Mycoplasma gallisepticum; infected chickens; intramuscular, 40 mg/kg daily x3, scale 0 to 4; direction not given): 3 and 2 and 1 and 0

COc1cc(Nc2n[nH]c3nc(-c4ccccc4)nc(N)c23)cc(OC)c1OC
IC50 (rhinovirus B42; viral cytopathic effect; HeLa): 110 nM

CC(C)(C)NCC(SS(=O)(=O)O)c1ccccc1 (stereo not drawn)
female worms recovered (Schistosoma mansoni; mice; 600 mg/kg single dose, dosed day 7, perfused 44): 8 worms per mouse and 9 worms per mouse and 10 worms per mouse and 7 worms per mouse and 12 worms per mouse

CC(CO)C(=O)OCC(C)C(=O)OCCc1ccc(O)cc1 (stereo not drawn)
inhibition (Zika virus; viral replication, CCK-8; Vero C1008; 10 µM, 96 h): 0%

COc1ccc(C(c2c[nH]c(=O)[nH]c2=O)c2c[nH]c(=O)[nH]c2=O)cc1OC
inhibition (Human immunodeficiency virus 1; viral replication, inhibitor, ELISA; 1 µg/mL): 19%

Cc1cccc2c1N(C(=O)n1ccnn1)CC2
germination rate (Striga hermonthica; seeds; 100 µM, together with: 10 nM (±)-GR24): 60.5% and 77.3% and 96.8% and 64.3% and 66.7% and 76.1% and 91.2%

COc1cccc2c(-c3ccc(O)c4c3CC(C)(C)N=C4)ccc(OC(C)C)c12
IC50 (Plasmodium falciparum; asexual parasite proliferation, SYBR Green I fluorescence; HB3): 414.8 ± 3.7 nM

O=c1[nH]cc(C(c2ccccc2)c2c[nH]c(=O)[nH]c2=O)c(=O)[nH]1
inhibition (Human immunodeficiency virus 1; viral replication, inhibitor, ELISA; 1 µg/mL): 4%

CN(Cc1ccc(C2(C(F)(F)F)CCC2)cc1)Cc1cccc2ccccc12
inhibition zone (Trichophyton rubrum; microbial growth, disc diffusion; ATCC28188; 0.00025 µg/mL, 6 days): 0 mm

N#Cc1ccc(C(c2c[nH]c(=O)[nH]c2=O)c2c[nH]c(=O)[nH]c2=O)cc1
inhibition (Human immunodeficiency virus 1; viral replication, inhibitor, ELISA; 1 µg/mL): 12%

Cc1cccc(Nc2n[nH]c3nc(-c4ccc(F)cc4F)nc(N)c23)c1
IC50 (coxsackievirus B3; viral cytopathic effect; HeLa): 8430 nM

COc1cc(O)c(-c2cc(-c3cc(-c4c(O)cc5c(c4OC)[C@H](C)N[C@H](C)C5)c4cc(C)cc(OC)c4c3O)c(O)c3c(OC)cc(C)cc23)c2c1[C@H](C)N[C@H](C)C2
IC50 (Plasmodium falciparum; asexual parasite proliferation, SYBR Green I fluorescence; HB3): 177 ± 6.2 nM

Nc1nc(-c2ccccc2)nc2[nH]nc(Nc3ccc(F)cc3)c12
IC50 (coxsackievirus B3; viral cytopathic effect; HeLa): 60 nM

CN(C)CCCSC(=S)N1CCN(C(=O)/C=C/c2coc3ccccc3c2=O)CC1
inhibition (Pepper mild mottle virus; inactivation activity; host plant; 500 µg/mL): 67% and 75% and 71%
